Results pooled from the literature.
Numbered parts are unrelated; each lists some results of a single study.
Sequence of UniProt Q9UL54 (whole entry, looked up): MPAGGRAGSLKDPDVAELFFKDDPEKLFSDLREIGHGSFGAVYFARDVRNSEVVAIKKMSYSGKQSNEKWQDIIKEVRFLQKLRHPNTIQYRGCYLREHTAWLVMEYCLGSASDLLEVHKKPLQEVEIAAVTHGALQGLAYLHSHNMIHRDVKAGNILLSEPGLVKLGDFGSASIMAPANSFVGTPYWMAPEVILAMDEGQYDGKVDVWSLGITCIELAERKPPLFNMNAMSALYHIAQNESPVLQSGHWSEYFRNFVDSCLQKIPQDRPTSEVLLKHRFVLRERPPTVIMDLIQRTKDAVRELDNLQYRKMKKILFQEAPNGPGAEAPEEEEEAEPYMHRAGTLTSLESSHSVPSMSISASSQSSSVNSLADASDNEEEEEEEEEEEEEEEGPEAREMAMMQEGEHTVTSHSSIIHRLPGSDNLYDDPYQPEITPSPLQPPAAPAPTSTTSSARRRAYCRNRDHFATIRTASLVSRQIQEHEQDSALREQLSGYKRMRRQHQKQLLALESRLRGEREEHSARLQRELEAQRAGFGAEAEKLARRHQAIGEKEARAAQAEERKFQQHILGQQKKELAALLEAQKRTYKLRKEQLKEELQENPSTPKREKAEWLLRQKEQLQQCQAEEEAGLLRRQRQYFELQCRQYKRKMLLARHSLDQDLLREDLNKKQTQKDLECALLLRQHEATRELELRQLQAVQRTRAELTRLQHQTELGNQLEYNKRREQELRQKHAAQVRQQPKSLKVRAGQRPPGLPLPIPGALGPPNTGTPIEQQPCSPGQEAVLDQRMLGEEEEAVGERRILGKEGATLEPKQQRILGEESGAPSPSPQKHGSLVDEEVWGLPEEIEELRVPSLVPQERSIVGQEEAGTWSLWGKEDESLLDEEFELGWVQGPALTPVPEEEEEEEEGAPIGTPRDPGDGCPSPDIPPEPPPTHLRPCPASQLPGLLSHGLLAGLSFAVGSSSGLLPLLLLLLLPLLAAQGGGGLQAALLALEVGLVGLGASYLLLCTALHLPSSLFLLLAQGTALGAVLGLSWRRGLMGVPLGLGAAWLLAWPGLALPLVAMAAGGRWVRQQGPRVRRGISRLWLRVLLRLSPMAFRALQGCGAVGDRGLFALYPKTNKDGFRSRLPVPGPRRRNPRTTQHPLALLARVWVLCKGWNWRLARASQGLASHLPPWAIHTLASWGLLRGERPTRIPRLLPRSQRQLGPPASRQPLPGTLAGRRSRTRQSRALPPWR
Sequence of UniProt Q8IYT8 (whole entry, looked up): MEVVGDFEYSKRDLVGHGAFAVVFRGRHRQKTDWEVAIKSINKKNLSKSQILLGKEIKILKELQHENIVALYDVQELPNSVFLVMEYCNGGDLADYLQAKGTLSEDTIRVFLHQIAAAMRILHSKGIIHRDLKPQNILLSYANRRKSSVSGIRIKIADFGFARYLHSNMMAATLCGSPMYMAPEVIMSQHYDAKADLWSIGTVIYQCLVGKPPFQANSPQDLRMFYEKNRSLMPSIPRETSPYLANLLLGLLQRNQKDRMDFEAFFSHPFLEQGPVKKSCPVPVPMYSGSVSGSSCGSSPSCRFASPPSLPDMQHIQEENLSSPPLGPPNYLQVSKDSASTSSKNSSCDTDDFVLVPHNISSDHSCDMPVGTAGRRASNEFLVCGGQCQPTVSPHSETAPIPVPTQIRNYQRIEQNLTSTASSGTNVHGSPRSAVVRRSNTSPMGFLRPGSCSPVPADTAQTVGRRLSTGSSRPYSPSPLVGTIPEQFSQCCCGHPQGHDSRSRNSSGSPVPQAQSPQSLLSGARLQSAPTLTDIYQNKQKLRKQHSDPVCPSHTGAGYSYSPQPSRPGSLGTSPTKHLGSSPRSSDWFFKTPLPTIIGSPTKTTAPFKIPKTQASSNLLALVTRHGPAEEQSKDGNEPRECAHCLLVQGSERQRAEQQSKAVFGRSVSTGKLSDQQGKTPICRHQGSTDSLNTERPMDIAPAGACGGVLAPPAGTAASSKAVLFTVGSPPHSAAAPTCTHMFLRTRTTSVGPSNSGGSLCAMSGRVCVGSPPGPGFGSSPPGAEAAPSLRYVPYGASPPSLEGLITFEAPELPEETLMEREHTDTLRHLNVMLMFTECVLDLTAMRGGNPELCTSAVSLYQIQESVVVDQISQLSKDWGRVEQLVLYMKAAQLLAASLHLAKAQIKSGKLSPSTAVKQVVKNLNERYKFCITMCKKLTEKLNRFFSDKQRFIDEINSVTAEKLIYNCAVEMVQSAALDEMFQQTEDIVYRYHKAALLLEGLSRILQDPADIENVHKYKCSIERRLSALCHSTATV
Sequence of UniProt Q12866 (whole entry, looked up): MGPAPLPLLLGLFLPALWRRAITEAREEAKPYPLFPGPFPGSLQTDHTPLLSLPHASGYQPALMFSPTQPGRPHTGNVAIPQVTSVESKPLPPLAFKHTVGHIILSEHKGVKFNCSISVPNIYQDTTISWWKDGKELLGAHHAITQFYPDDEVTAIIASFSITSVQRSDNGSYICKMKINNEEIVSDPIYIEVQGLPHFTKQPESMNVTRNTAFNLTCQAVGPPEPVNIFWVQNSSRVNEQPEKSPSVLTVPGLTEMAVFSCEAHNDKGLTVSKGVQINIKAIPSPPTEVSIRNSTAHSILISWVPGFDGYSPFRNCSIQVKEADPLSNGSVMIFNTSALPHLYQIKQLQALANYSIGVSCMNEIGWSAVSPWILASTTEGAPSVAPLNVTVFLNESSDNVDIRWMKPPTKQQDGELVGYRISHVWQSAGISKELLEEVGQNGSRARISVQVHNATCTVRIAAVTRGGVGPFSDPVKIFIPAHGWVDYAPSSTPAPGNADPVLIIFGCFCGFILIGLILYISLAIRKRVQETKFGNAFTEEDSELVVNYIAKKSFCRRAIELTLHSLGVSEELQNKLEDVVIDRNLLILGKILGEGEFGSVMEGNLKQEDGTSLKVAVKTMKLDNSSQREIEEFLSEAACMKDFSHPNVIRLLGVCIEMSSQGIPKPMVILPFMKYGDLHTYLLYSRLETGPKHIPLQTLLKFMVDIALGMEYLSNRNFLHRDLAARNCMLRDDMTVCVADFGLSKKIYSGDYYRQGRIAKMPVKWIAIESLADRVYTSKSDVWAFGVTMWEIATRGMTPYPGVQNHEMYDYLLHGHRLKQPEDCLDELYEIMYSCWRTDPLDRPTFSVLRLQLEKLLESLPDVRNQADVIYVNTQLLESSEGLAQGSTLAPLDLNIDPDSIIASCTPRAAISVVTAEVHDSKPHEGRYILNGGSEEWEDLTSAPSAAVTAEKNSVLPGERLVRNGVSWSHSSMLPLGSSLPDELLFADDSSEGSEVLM
Sequence of UniProt Q04912 (whole entry, looked up): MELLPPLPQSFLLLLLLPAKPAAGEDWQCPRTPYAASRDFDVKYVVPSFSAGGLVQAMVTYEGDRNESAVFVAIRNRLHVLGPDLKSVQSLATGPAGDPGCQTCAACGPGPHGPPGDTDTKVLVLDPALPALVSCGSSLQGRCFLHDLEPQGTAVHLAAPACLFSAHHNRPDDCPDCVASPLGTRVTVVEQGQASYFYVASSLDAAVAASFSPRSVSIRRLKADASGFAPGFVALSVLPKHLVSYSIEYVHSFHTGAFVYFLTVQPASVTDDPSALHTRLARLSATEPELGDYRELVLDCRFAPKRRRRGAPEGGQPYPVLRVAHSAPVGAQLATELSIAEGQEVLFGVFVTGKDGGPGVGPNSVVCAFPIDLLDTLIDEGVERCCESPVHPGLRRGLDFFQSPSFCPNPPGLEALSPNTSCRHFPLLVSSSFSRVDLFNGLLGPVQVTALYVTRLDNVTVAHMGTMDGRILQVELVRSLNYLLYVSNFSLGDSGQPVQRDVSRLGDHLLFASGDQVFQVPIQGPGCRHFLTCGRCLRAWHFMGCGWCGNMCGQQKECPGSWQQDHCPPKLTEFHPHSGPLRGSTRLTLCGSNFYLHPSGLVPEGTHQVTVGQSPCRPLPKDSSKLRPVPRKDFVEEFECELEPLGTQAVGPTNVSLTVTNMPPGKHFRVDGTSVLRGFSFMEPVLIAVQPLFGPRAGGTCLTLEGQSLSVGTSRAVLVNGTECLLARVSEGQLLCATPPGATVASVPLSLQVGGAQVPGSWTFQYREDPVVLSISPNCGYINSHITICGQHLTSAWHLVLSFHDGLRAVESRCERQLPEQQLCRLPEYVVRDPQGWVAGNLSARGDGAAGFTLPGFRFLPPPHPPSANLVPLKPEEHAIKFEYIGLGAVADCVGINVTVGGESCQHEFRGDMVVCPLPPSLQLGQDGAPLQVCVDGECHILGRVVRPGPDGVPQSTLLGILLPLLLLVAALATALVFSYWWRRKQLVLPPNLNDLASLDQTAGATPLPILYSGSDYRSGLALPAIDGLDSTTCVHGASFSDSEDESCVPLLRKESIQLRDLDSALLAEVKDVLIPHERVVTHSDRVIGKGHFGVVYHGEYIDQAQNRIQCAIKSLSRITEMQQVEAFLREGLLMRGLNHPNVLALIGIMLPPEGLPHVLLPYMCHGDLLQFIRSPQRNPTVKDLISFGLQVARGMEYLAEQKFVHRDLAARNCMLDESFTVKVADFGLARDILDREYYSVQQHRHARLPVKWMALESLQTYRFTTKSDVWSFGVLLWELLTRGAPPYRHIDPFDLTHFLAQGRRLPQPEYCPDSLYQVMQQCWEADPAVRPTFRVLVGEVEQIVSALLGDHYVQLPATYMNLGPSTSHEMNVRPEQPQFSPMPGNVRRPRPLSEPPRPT
Sequence of UniProt P27361 (whole entry, looked up): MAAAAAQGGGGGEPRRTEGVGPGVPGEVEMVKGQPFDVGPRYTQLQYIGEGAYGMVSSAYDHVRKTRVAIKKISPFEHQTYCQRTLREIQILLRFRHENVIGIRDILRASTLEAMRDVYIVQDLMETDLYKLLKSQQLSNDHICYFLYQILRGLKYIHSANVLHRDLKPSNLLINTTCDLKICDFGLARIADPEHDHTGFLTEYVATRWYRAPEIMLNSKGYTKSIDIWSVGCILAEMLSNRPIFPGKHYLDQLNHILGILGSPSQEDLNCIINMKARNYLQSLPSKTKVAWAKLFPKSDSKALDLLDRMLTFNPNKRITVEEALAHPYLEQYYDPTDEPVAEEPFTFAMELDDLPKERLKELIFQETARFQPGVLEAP

Series 1
SMILES: CC(C)n1cnc(-c2ccc(F)cc2)c1-c1ncc(C(=O)Nc2ccc(N3CCN(C)CC3)cc2)[nH]1
Technique: Phase 2a trial
Host: idiopathic pulmonary fibrosis patients
assay	conditions	patients with adverse events [%]
refers to: vision blurred	30 mg once daily, grade 2 maximum intensity	0
refers to: weight increased	60 mg once daily, grade 5 maximum intensity	0
refers to: muscular weakness	dose not given, grade 3 maximum intensity, all arms	0
refers to: back pain	60 mg once daily, grade 5 maximum intensity	0

Series 2
Cell line: A-375
Concentration: 100 µM
Time: 18 h
SMILES	viability
O=C(Nc1cccc2c(=O)cc(-c3nnn[nH]3)oc12)c1ccc(OCCCCc2ccccc2)cc1	87.7%
CCCOc1ccc(C(=O)OCCN(CC)CC)cc1N	85.2%
Cn1c(=O)c2c(ncn2CC(O)CO)n(C)c1=O (stereo not drawn)	92.5%
CCC[C@@H]1C[C@@H](C(=O)N[C@@H]([C@H]2O[C@H](SC)[C@H](OP(=O)(O)O)[C@@H](O)[C@H]2O)[C@H](C)Cl)N(C)C1	99.5%
CS(=O)(=O)Nc1ccc([N+](=O)[O-])cc1Oc1ccccc1	90.3%

Series 3
SMILES: NC(=O)c1cccc(-c2cc(Nc3ccc(OC(F)(F)F)cc3)ncn2)c1
Read-out: enzyme activity
Action: inhibitor
Concentration: 0.5 µM
Relative to: control
target	remaining activity [%]
Serine/threonine-protein kinase ULK2 (ULK2, Homo sapiens, UniProt Q8IYT8)	103
Serine/threonine-protein kinase Nek1 (NEK1, Homo sapiens, UniProt Q96PY6)	89.6
Mitogen-activated protein kinase 3 (MAPK3, Homo sapiens, UniProt P27361)	94.5
Rhodopsin kinase GRK7 (GRK7, Homo sapiens, UniProt Q8WTQ7)	97.1
Tyrosine-protein kinase FRK (FRK, Homo sapiens, UniProt P42685)	95.5
Casein kinase I isoform gamma-3 (CSNK1G3, Homo sapiens, UniProt Q9Y6M4)	93.4
Wee1-like protein kinase (WEE1, Homo sapiens, UniProt P30291)	98.9
Tyrosine-protein kinase JAK3 (JAK3, Homo sapiens, UniProt P52333)	101
Macrophage-stimulating protein receptor (MST1R, Homo sapiens, UniProt Q04912)	111
Ribosomal protein S6 kinase alpha-2 (RPS6KA2, Homo sapiens, UniProt Q15349)	96.2
Tyrosine-protein kinase Mer (MERTK, Homo sapiens, UniProt Q12866)	98.1
Serine/threonine-protein kinase TAO2 (TAOK2, Homo sapiens, UniProt Q9UL54)	91
Angiopoietin-1 receptor (TEK, Homo sapiens, UniProt Q02763)	94.2

Series 4
Target: Diamine acetyltransferase 1 (Homo sapiens, UniProt P21673)
Action: inhibitor
Concentration: 10 µM
Relative to: control
Construct (P21673 1-171): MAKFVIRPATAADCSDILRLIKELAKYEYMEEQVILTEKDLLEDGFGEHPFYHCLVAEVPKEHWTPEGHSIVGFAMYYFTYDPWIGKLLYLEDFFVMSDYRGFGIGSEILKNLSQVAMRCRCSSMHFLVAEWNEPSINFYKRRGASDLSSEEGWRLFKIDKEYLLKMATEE
SMILES	remaining activity
CCCCCCCCCCCCCCCCCCCCC(=O)O	95.9%
O=C(O)CCC(=O)O	93.5%
COc1cc(C[C@H]2CO[C@H](c3ccc(O)c(OC)c3)[C@H]2CO)ccc1O	72.1%
COc1cc(CO)ccc1O	91.7%
CCCCCCCCCCCCCC(=O)OC	97.4%

Single results of other studies
SMILES	target	assay	conditions	endpoint	value
Cc1c(N2CCCC2)nc2ccc(Br)cc2c1C(=O)NC[C@H](CCC(=O)O)c1ccccc1Cl	5-hydroxytryptamine receptor 2B (HTR2B, Homo sapiens, UniProt P41595)	cell-free assay	10 µM	inhibition	5.5%
C[C@H](c1ccnc(Nc2nc3ccc(-c4cc(N(C)C)ncn4)cc3[nH]2)c1)N1CCN(C(=O)CC(F)(F)F)CC1	Serine/threonine-protein kinase TBK1 (TBK1, Homo sapiens, UniProt Q9UHD2)		0.1 µM	remaining activity	2.4%
CS(=O)(=O)NCC[C@H](NC(=O)c1cncc2c1cnn2-c1ccc(F)cc1)c1ccnc(S(C)(=O)=O)c1	5-hydroxytryptamine receptor 5A (HTR5A, Homo sapiens, UniProt P47898)	ligand displacement	10 µM	inhibition	-14.4%

Some of these lines once more (series 2):
SMILES	viability
Cn1c(=O)c2c(ncn2CC(O)CO)n(C)c1=O (stereo not drawn)	92.5%
O=C(Nc1cccc2c(=O)cc(-c3nnn[nH]3)oc12)c1ccc(OCCCCc2ccccc2)cc1	87.7%
